Measurements collected from several papers.
Target: NAD-dependent protein deacylase sirtuin-6 (SIRT6, Homo sapiens, UniProt Q8N6T7)
Sequence of UniProt Q8N6T7 (whole entry, looked up): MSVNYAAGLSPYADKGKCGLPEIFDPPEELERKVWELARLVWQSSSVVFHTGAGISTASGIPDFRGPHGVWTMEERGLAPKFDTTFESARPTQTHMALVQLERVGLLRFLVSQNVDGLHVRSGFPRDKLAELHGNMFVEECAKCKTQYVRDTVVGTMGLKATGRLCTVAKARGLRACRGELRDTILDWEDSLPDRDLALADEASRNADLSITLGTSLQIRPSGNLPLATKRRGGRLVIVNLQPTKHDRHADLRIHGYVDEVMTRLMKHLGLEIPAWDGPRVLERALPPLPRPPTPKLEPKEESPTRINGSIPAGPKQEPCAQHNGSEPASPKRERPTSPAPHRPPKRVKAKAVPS

NC(=O)c1ccc(C(=O)NOCc2ccccc2)cc1
IC50 (enzyme activity, inhibitor, fluorescence): 11.2 µM

CCCCCCCCCCCCCC(=S)NCCCC[C@H](NC(=O)[C@@H]1CCCN1)C(=O)N[C@@H](CCCCN)C(=O)N[C@H](C(=O)NCC(=O)O)[C@@H](C)O
IC50: 42.2 µM

NC(=O)c1cn(CC(=O)NC[C@H](NC(=O)CCc2nc(-c3cccnc3)no2)C(=O)NC2CCC2)c(=O)[nH]c1=O
IC50 (inhibitor, biochemical): 8.2 µM

CC(=S)NCCCC[C@H](NC(=O)[C@H](CCCNC(=N)N)NC(=O)[C@H](C)N)C(=O)N[C@@H](CO)C(=O)N[C@H](C(=O)O)[C@@H](C)O
IC50 (enzyme activity, inhibitor): > 100 µM

Cc1cc(F)c(Br)cc1N1C(=O)c2cc(NS(=O)(=O)c3cc(Cl)cc(Cl)c3)ccc2S1(=O)=O
EC50 (enzyme activity, activator, fluorescence): 28 µM

NC(=O)c1ccc(C(=O)NOCc2ccc(Sc3cccc(Cl)c3)c(C(F)(F)F)c2)cc1
Kd (binding, SPR): 9.46 µM

Cc1cc(F)ccc1NS(=O)(=O)c1ccc(NS(=O)(=O)c2cc(Cl)cc(Cl)c2)cc1C(=O)O
Kd (binding, MST): 278 µM

NC(=O)c1cn(CC(=O)NC[C@H](NC(=O)CCc2nc(-c3cccnc3)no2)C(=O)Nc2ccccc2)c(=O)[nH]c1=O
IC50 (inhibitor, biochemical): 9.3 µM

A few entries again:
NC(=O)c1ccc(C(=O)NOCc2ccccc2)cc1
IC50 (enzyme activity, inhibitor, fluorescence): 11.2 µM
